Measurements pooled from the literature.
Parts stem from different laboratories: compare values within a part only. Positions count from the first letter of the parent shown.
Chain of UniProt P20309 (whole entry, looked up): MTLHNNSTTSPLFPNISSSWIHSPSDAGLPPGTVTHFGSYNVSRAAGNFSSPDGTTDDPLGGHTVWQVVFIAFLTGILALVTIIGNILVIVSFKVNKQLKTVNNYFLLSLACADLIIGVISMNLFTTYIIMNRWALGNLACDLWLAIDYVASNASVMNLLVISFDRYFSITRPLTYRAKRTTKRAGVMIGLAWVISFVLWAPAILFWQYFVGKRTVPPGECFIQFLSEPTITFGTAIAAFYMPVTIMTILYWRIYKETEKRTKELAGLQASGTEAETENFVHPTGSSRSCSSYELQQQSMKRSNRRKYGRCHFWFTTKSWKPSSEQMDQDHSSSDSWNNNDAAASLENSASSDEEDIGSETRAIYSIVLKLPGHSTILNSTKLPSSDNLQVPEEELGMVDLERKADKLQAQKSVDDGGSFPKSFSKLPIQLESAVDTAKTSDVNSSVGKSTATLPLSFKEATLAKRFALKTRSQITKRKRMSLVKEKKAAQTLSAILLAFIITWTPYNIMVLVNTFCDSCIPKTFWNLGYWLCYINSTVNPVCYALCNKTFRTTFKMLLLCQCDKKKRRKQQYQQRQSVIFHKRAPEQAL

Series 1
Target: CCNE2, cyclin fold, Cln2 fusion (human)
Technique: yeast growth competition, sequencing
Medium: yeast
Notes: strong parent motif
Relative to: not given
Reading: higher = stronger binding
Starting sequence: viral docking peptide; KKAKRRLFTISDS
`F8A` — result for “normalised enrichment score”: 0.705.
`R5A L7A` — result for “normalised enrichment score”: 0.113.
For `K2A`, “normalised enrichment score” read 2.46.
`F8L`: “normalised enrichment score” 0.975.
For `L7A`, “normalised enrichment score” read 0.148.
`T9A`: “normalised enrichment score” 2.36.
`K1A` — result for “normalised enrichment score”: 2.81.
`S11A` — result for “normalised enrichment score”: 2.13.

Series 2
Target: inorganic phosphate, free oxyanion
Technique: microfluidic competitive inhibition
Medium: in vitro, cell-free expressed
Tested at: not given
Notes: derived from inhibition constants, unchanged parent 615000 nM
Reading: lower = stronger binding
Starting sequence: PafA, mature enzyme, eGFP fusion (Elizabethkingia meningoseptica, UniProt Q9KJX5); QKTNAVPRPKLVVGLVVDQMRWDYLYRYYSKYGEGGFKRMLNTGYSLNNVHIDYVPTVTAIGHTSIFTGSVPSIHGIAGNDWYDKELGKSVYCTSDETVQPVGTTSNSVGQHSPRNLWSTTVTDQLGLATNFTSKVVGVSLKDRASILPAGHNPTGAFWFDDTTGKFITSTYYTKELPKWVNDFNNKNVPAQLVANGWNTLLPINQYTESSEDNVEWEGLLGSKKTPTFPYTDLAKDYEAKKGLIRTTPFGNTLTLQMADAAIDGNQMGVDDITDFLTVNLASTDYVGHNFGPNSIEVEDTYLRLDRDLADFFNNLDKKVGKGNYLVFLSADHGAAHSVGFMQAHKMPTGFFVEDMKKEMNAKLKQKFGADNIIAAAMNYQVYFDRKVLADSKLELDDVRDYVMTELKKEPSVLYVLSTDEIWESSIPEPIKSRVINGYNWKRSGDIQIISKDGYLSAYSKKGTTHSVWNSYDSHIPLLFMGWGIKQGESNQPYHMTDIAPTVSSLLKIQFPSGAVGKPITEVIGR
`Y26G` — result for “phosphate dissociation constant”: 343 µM.
`P293G` — result for “phosphate dissociation constant”: 540 µM.
For `H152V`, “phosphate dissociation constant” read 499 µM.
`M258G` — result for “phosphate dissociation constant”: 485 µM.
Under “phosphate dissociation constant”, `M481G` is recorded as 587 µM.
Under “phosphate dissociation constant”, `K365V` is recorded as 738 µM.
`T68G` — result for “phosphate dissociation constant”: 173 µM.
`E86V` — result for “phosphate dissociation constant”: 537 µM.

Further values, each from its own experiment
`Nc1cnc(N2CCc3cc(S(=O)(=O)Nc4c(F)cc(Cl)cc4F)cc(N4CCCC4=O)c32)nc1` has an inhibition of -18% (CHRM3 (Homo sapiens, UniProt P20309); ligand displacement; 10 µM).
With `CCN(CC)CCCOC(=O)C(OC(C)C)(c1ccccc1)c1ccccc1` the remaining compound was 5.9% (mouse, microsomes or S9; 2 µM, 0.5 h).
